Published values pooled from the literature.
Parts stem from different laboratories: compare values within a part only. Numbers after ± are the reported error.

Block 1
Target: HIV-1 TAR RNA
Concentration: concentration not given
Temperature: 25 °C
Under “binding enthalpy ΔH°”, CC(=O)NCCN(CCC(=O)NCCN(CCC(=O)NCCN(CCC(=O)NCCC(N)=O)C(=O)[C@@H](N)CCCNC(=N)N)C(=O)[C@@H](N)Cc1ccccc1)C(=O)[C@@H](N)Cc1ccccc1 is recorded as -7.96 ± 0.406 kcal/mol.
Under “binding enthalpy ΔH°”, CC(=O)NCCN(CCC(=O)NCCN(CCC(=O)NCCN(CCC(=O)NCCC(N)=O)C(=O)[C@@H](N)Cc1ccccc1)C(=O)[C@@H](N)CCCNC(=N)N)C(=O)[C@@H](N)Cc1ccccc1 is recorded as -8.77 ± 0.693 kcal/mol.
CC(=O)NCCN(CC(=O)NCCN(CC(=O)NCCN(CC(=O)NCCC(N)=O)C(=O)[C@@H](N)CCCNC(=N)N)C(=O)[C@@H](N)Cc1ccccc1)C(=O)[C@@H](N)Cc1ccccc1 — result for “binding enthalpy ΔH°”: -12.36 ± 0.12 kcal/mol.

Block 2
Structure (SMILES): CNCc1ccc2c(c1)C[C@H](CNC(=N)N)[C@H]2NC(=O)C(=O)Nc1ccc(Cl)c(F)c1
Cell line: TZM-bl
Human immunodeficiency virus 1; viral infection, Env pseudovirus; ZM53M.PB12 clade C — IC50: 85.7 µM.
It gave 28.6 µM for IC50 (Human immunodeficiency virus 1; viral infection, Env pseudovirus; 1012_11_TC21_3257 clade B T/F).
It gave 8.6 µM for IC50 (env (Human immunodeficiency virus 1, UniProt Q5G5V1); pseudovirus infection, luciferase reporter; 48 h).
It gave > 100 µM for IC50 (env (Human immunodeficiency virus 1, UniProt C6ZIG9); pseudovirus infection, luciferase reporter; 48 h).
Human immunodeficiency virus 1; viral infection, Env pseudovirus; 3301.v1.c24 clade AC — IC50: 8.86 µM.

Other studies, line by line
C[C@H](Nc1ncnc(N)c1C#N)c1c(-c2ccccc2)[nH]c2c(Cl)cccc2c1=O has a half-life of 2.3 ± 0.1 h (CB17 SCID mice, xenograft, plasma; oral, 200 mg/kg once daily, day 14).
F[P-](F)(F)(F)(F)F.OC(Cn1cncn1)(Cn1cc(-[c-]2cccc2)nn1)c1ccc(F)cc1F.[Co+3].c1cc[cH-]c1 (racemic) has an inhibition of 14% (Brugia pahangi; motility, Worminator; adult female; 50 µM, 3 d).
